Assay results gathered from unrelated publications.
Compare with care: the assays were run in different laboratories.
FLT3 D835Y: Receptor-type tyrosine-protein kinase FLT3 (FLT3, Homo sapiens, UniProt P36888, D835Y)
FLT3 N841I: Receptor-type tyrosine-protein kinase FLT3 (FLT3, Homo sapiens, UniProt P36888, N841I)
FLT3 K663Q: Receptor-type tyrosine-protein kinase FLT3 (FLT3, Homo sapiens, UniProt P36888, K663Q)
FLT3: Receptor-type tyrosine-protein kinase FLT3 (FLT3, Homo sapiens, UniProt P36888)

`CCN1CCN(Cc2ccc(C(=O)Nc3ccc(C)c(NCc4cnc5[nH]ccc5c4OC)c3)cc2C(F)(F)F)CC1` has a remaining binding of 17% (FLT3 D835Y; binding, competition with immobilised ligand; 1 µM).
`Nc1ncc2c(n1)-c1c([nH]c3ccc(C4=CCOCC4)cc13)CCC2` has a remaining binding of 100% (FLT3 D835Y; binding, competition with immobilised ligand; 1 µM).
For `C[C@]1(O)CCCN(c2nc(Nc3ccc(S(=O)(=O)N[C@H]4CC[C@H](CN5CCN(c6ccc(C7CCC(=O)NC7=O)cc6F)CC5)CC4)cc3)ncc2C(F)(F)F)C1` (some centres unmarked), the remaining binding was 8.4% (FLT3 N841I; binding, competition with immobilised ligand; 1 µM).
The remaining binding of `Cc1cnc2nc1Nc1cccc(c1)COC/C=C/COCc1cc(ccc1OCCN1CCOCC1)N2` is reported as 1% (FLT3 K663Q; binding; 0.1 µM).
`COc1c(Cl)cccc1Nc1c(-c2ccncc2C#C[C@@]2(C)CCCN2C(=O)/C=C/CN(C)C)[nH]c2c1C(=O)NCC2` gave a remaining binding of 92% (FLT3 N841I; binding, competition with immobilised ligand; 3 µM).
For `CNC1C[S+]2CC[S+]3CC[S+](C1)[Ru-4]321([N]=C=S)[n]2c3ccc(OC)cc3c3c4c(c5cc(F)c[n+]1c5c32)C(=O)NC4=O` (centres unmarked), the remaining binding was 100% (Receptor-type tyrosine-protein kinase FLT3, autoinhibited (FLT3, Homo sapiens, UniProt P36888); KinomeScan; 0.1 µM; baseline: untreated).
The remaining binding of `CN1CCN(Cc2ccc(NC(=O)c3cccc(C#Cc4cnc(N)c5ncccc45)c3)cc2C(F)(F)F)CC1` is reported as 0.2% (FLT3; cell-free assay, competition with immobilised ligand; 0.5 µM).
`CC(C)=CC1OC(C)(C)C2C=C3C(=O)C(Cl)=CC(O)C3C3C(O)C4OC4C(=O)C132` (centres unmarked) gave a remaining binding of 92% (FLT3; cell-free assay, competition with immobilised ligand; 10 µM).
The remaining binding of `Cc1ccc(-c2c(/C=C(\C#N)C(=O)NC(C)C)n(CCCO)c3ncnc(N)c23)cc1` is reported as 70% (FLT3 K663Q; cell-free assay, competition with immobilised ligand; 1 µM).
`CCN1CCN(Cc2ccc(NC(=O)c3ccc(C)c(NC(=O)c4cncc(-c5cccs5)c4)c3)cc2C(F)(F)F)CC1` has a remaining binding of 3.2% (FLT3 (Homo sapiens, UniProt P36888, D835H); binding, competition with immobilised ligand; 1 µM).
With `C=CC(=O)N1CCc2ccc(-n3c(=O)ccc4cnc5ccc(-c6cnn(C)c6)cc5c43)cc21` the remaining binding was 98% (FLT3; KINOMEscan; 1 µM; baseline: DMSO control).
For `C=CC(=O)N1CCCC(n2c(=O)c3ncccc3n(Cc3ccc(Oc4ccccc4)cc3)c2=O)C1` (centres unmarked), the remaining binding was 77% (FLT3 (Homo sapiens, UniProt P36888, R834Q); cell-free assay, competition with immobilised ligand; 1 µM).
The remaining binding of `CC(=O)N1c2ccc(-c3ccc(CNC(=O)c4cn5cc(-c6cnc(N)nc6)nc(N6CCOCC6)c5n4)cc3)cc2CC[C@@H]1C` is reported as 98% (FLT3; KINOMEscan; 10 µM).
For `CNC(=O)C1CCN(c2cc(C)c(F)cc2NC(=O)c2ccc(-c3cc(O)ccc3C)c(C)c2)CC1`, the remaining binding was 100% (FLT3 (Homo sapiens, UniProt P36888, D835V); binding, competition with immobilised ligand; 1 µM).
